{"data": "Assay results of several laboratories", "note": "Protocols differ between the studies behind these lines. Values joined by “and” are separate records of one study, mostly repeats; a detail may differ. ± marks the error that the study gave."}
{"Structure (SMILES)": "COc1cnc2cccc(N3CCc4c(cc(Cn5ccnc5)cc4-c4cn(C)nc4C(F)(F)F)C3=O)c2c1", "system": "CD-1 mice", "conditions": "intraperitoneal, 150 mg/kg once daily, day 1", "endpoint": "body weight", "result": "28 ± 1 g"}
{"Structure (SMILES)": "CSCC[C@H](NC(=O)CNC(=O)[C@H](CCCCN)NC(=O)[C@H](CC(C)C)NC(=O)[C@@H]1CCCN1C(=O)[C@H](CO)NC(=O)[C@H](Cc1c[nH]cn1)NC(=O)[C@H](Cc1c[nH]c2ccccc12)NC(=O)[C@H](CCCNC(=N)N)NC(=O)[C@H](CC(C)C)NC(=O)[C@H](CCCNC(=N)N)NC(=O)[C@H](Cc1c[nH]c2ccccc12)NC(=O)[C@H](CS)NC(=O)CCCCCNC(=O)CN1CCN(CC(=O)O)CCN(CC(=O)O)CCN(CC(=O)O)CC1)C(=O)O [copper-64 labelled]", "assay": "PET imaging", "system": "BALB/c nude mice, liver", "conditions": "intravenous, dose not given, 30 h, Huh-7 tumour-bearing", "endpoint": "tissue uptake", "result": "6.18 ± 0.24 %ID/g"}
{"Structure (SMILES)": "CN1Cc2cc(Cl)ccc2-n2c(nnc2C2CCN(c3cccc([18F])n3)CC2)C1", "assay": "PET two-tissue compartment model", "system": "rhesus monkey, male, striatum", "conditions": "intravenous, dose not given, 90 min scan, baseline scan", "endpoint": "total volume of distribution", "result": "1.1 ± 0.31 mL/cm3"}
{"Structure (SMILES)": "CC(C)[C@@H]1NC(=O)CNC(=O)[C@H](CC(N)=O)NC(=O)[C@H](CCCNC(=N)N)NC(=O)[C@H](Cc2ccc(O)cc2)NC(=O)[C@H](C(C)C)NC(=O)[C@@H](NC(=O)[C@@H](NC(=O)[C@H](CC(N)=O)NC(=O)[C@H](Cc2c[nH]c3ccccc23)NC(=O)[C@H](C)NC(=O)[C@H](Cc2ccccc2)NC(=O)CNC(=O)[C@H](CCCCN)NC(=O)[C@H](Cc2ccccc2)NC(=O)[C@H](Cc2ccccc2)NC(=O)[C@H](CCCCN)NC(=O)OCC2c3ccccc3-c3ccccc32)C(C)C)CSSC[C@@H](C(=O)N[C@@H](Cc2c[nH]cn2)C(=O)N[C@@H](CCCNC(=N)N)C(=O)N[C@@H](CCCNC(=N)N)C(=O)N[C@@H](C)C(=O)N[C@@H](CC(N)=O)C(N)=O)NC(=O)[C@H](C(C)C)NC(=O)[C@H](CCCNC(=N)N)NC1=O", "assay": "HPLC", "system": "mouse liver homogenate 50 mg/mL", "conditions": "4.00 h", "endpoint": "peptide remaining", "result": "46.3% and 40.3% and 43.2%"}
{"Structure (SMILES)": "CSCC[C@H](N)C(=O)N[C@@H](C)C(=O)N[C@@H](CCCNC(=N)N)C(=O)N[C@@H](CCCNC(=N)N)C(=O)N[C@@H](CC(=O)O)C(=O)N[C@@H](CCCCN)C(=O)N[C@H](C(=O)N[C@@H](CC(=O)O)C(=O)N[C@@H](Cc1ccccc1)C(=O)N[C@@H](C)C(=O)N[C@@H](CCCNC(=N)N)C(=O)N[C@@H](CCCNC(=N)N)C(=O)N[C@@H](CCCNC(=N)N)C(=O)N[C@@H](CCCNC(=N)N)C(=O)NCCCCCC(=O)NCCCCC(NC(=O)CCCCCNC(=O)[C@H](CCCNC(=N)N)NC(=O)[C@H](CCCNC(=N)N)NC(=O)[C@H](CCCNC(=N)N)NC(=O)[C@H](CCCNC(=N)N)NC(=O)[C@H](C)NC(=O)[C@H](Cc1ccccc1)NC(=O)[C@H](CC(=O)O)NC(=O)[C@@H](NC(=O)[C@H](CCCCN)NC(=O)[C@H](CC(=O)O)NC(=O)[C@H](CCCNC(=N)N)NC(=O)[C@H](CCCNC(=N)N)NC(=O)[C@H](C)NC(=O)[C@@H](N)CCSC)[C@@H](C)O)C(=O)NCCCCC(NC(=O)C(CCCCNC(=O)CCCCCNC(=O)[C@H](CCCNC(=N)N)NC(=O)[C@H](CCCNC(=N)N)NC(=O)[C@H](CCCNC(=N)N)NC(=O)[C@H](CCCNC(=N)N)NC(=O)[C@H](C)NC(=O)[C@H](Cc1ccccc1)NC(=O)[C@H](CC(=O)O)NC(=O)[C@@H](NC(=O)[C@H](CCCCN)NC(=O)[C@H](CC(=O)O)NC(=O)[C@H](CCCNC(=N)N)NC(=O)[C@H](CCCNC(=N)N)NC(=O)[C@H](C)NC(=O)[C@@H](N)CCSC)[C@@H](C)O)NC(=O)CCCCCNC(=O)[C@H](CCCNC(=N)N)NC(=O)[C@H](CCCNC(=N)N)NC(=O)[C@H](CCCNC(=N)N)NC(=O)[C@H](CCCNC(=N)N)NC(=O)[C@H](C)NC(=O)[C@H](Cc1ccccc1)NC(=O)[C@H](CC(=O)O)NC(=O)[C@@H](NC(=O)[C@H](CCCCN)NC(=O)[C@H](CC(=O)O)NC(=O)[C@H](CCCNC(=N)N)NC(=O)[C@H](CCCNC(=N)N)NC(=O)[C@H](C)NC(=O)[C@@H](N)CCSC)[C@@H](C)O)C(N)=O)[C@@H](C)O (some centres unmarked)", "system": "C57BL/6 mouse female, heart", "conditions": "dose not given, 3 h", "how to read": "reference: total", "endpoint": "tissue distribution", "result": "0.81% and 0.62% and 0.54%"}
{"Structure (SMILES)": "CC(=O)NCCCC[C@@H]1NC(=O)[C@H](Cc2c[nH]c3c(C)cccc23)NC(=O)[C@H]([C@@H](C)O)NC(=O)[C@H](CC(N)=O)NC(=O)[C@@H](NC(C)=O)C(C)(C)SSC(C)(C)[C@@H](C(=O)N[C@@H](Cc2ccc(OCCN)cc2)C(=O)N[C@@H](Cc2ccc3ccccc3c2)C(=O)NC2(C(=O)N[C@@H](CCC(=O)O)C(=O)N[C@@H](CC(N)=O)C(=O)N[C@@H](Cc3cccnc3)C(=O)N(C)CC(N)=O)CCOCC2)NC1=O", "system": "human, plasma", "conditions": "oral, 100 mg, single dose, healthy volunteers", "endpoint": "CL/F", "result": "5230 L/h"}
{"Structure (SMILES)": "C#Cc1c(F)ccc2cc(O)cc(-c3ncc4c(N5CC6CCC(C5)N6C(=O)OC(C)OC(=O)CCCCC)nc(OC[C@@]56CCCN5C[C@H](F)C6)nc4c3F)c12 (some centres unmarked)", "assay": "measured: prodrug", "system": "mouse whole blood", "conditions": "1 µM", "endpoint": "t1/2", "result": "5.92 min"}
{"Structure (SMILES)": "CC(C)(N)CNC(=O)Oc1cccc([C@H]2CCC[C@@]3(C2)OOC2(O3)C3CC4CC(C3)CC2C4)c1 (some centres unmarked)", "assay": "metabolic stability", "system": "human, liver microsomes", "endpoint": "microsomal CLint", "result": "< 11 µL/min/mg"}
{"Structure (SMILES)": "CC[C@H](C)[C@H](NC(=O)[C@H](CCCCN)NC(=O)CNC(=O)[C@H](CC(C)C)NC(=O)[C@H](Cc1ccccc1)NC(=O)[C@H](CCCCN)NC(=O)[C@H](CO)NC(=O)[C@H](Cc1ccccc1)NC(=O)[C@H](Cc1c[nH]c2ccccc12)NC(=O)[C@H](CCC(N)=O)NC(=O)[C@@H](NC(=O)[C@H](Cc1ccccc1)NC(=O)CCCCCNC(=O)CN1CCN(CC(=O)O)CCN(CC(=O)O)CCN(CC(=O)O)CC1)C(C)C)C(=O)N[C@@H](CCC(=O)O)C(=O)N1CCC[C@H]1C(=O)N[C@@H](CC(=O)O)C(=O)N[C@H](C(=O)N[C@@H](CO)C(=O)N[C@@H](CCC(N)=O)C(=O)N[C@H](C(=O)N[C@@H](CCC(N)=O)C(=O)N[C@@H](CC(=O)O)C(=O)N1CCC[C@H]1C(=O)N[C@@H](CC(N)=O)C(=O)N[C@@H](CC(=O)O)C(=O)N[C@@H](CCC(N)=O)C(=O)N[C@@H](Cc1ccc(O)cc1)C(=O)N[C@@H](CCC(=O)O)C(=O)N1CCC[C@H]1C(=O)N[C@@H](Cc1ccccc1)C(=O)O)C(C)C)C(C)C [copper-64 labelled]", "system": "GZMB-/- mice, CT26 tumour-bearing, brain", "conditions": "2 h, vehicle-treated", "endpoint": "tissue uptake", "result": "0.1 ± 0.01 %ID/g"}
{"Structure (SMILES)": "CCN1CC2(COC)C(O)CC(OC)C34C5CC6(O)C(OC)C(O)C(O)(C5C6OC(=O)c5ccccc5)C(C(OC)C23)C14 (centres unmarked)", "system": "Sprague-Dawley rat, plasma", "conditions": "oral, dose not given, with NADES in PCW extract", "endpoint": "Tmax", "result": "40 ± 8.64 min"}
{"Structure (SMILES)": "C/C(=N\\OCCCN1CCCCC1)c1ccc(C(F)(F)F)cc1", "system": "mouse, plasma", "conditions": "oral, 150 mg/kg once daily, day 7", "endpoint": "AUC(0-t)", "result": "10400 ± 1130 ng·h/mL"}
{"Structure (SMILES)": "CC(CCC(=O)NCC(=O)O)C1CCC2C3CCC4CC(OC5OC(C(=O)O)C(O)C(O)C5O)CCC4(C)C3CC(O)C12C (centres unmarked)", "system": "women, T/T genotype, plasma", "conditions": "dose not given, geometric mean", "endpoint": "glucuronide to parent ratio", "result": 0.373}
{"Structure (SMILES)": "CC[C@H](C)[C@H](NC(=O)[C@H](Cc1ccc(O)cc1)NC(=O)[C@@H](NC(=O)[C@H](CCCNC(=N)N)NC(=O)[C@@H](N)CC(=O)O)C(C)C)C(=O)N[C@@H](Cc1c[nH]cn1)C(=O)N1CCC[C@H]1C(=O)O", "system": "Beagle dog", "conditions": "sc, 10 mg/kg once daily, 28 days", "endpoint": "tolerability", "result": "not toxic"}
{"Structure (SMILES)": "O=C1NC2(CC2)COc2ncc(F)cc2[C@H]2COCCN2c2ccn3ncc1c3n2", "system": "Sprague-Dawley rat, female, serum", "conditions": "oral, 20 mg/kg/day, 4 weeks daily, end of recovery period", "endpoint": "potassium", "result": "4.1 ± 0.24 mmol/L"}
{"Structure (SMILES)": "Cc1nnc(-c2ccc(CC(=O)NCCCC[C@H](NC(=O)c3ccc(OCc4ccc(B(O)O)cc4)c(-c4nc5ccccc5c(=O)[nH]4)c3)C(=O)NCC(=O)NCC(=O)NCC(=O)N[C@@H](Cc3ccccc3)C(=O)N[C@@H](Cc3ccccc3)C(=O)O)cc2)nn1", "assay": "UPLC-MS/MS", "system": "human serum", "conditions": "100 µM, 0.5 h, 37 °C", "endpoint": "remaining compound", "result": "97.2%"}
{"Structure (SMILES)": "Cc1cccc2c1C1(CCN(C(=O)c3ccc4[nH]ncc4c3)CC1)C(=O)N2CC(=O)NCC(F)(F)F", "system": "mouse liver microsomes", "endpoint": "CLint", "result": "21 µL/min/mg protein"}
{"Structure (SMILES)": "N#[11C]c1ccc(-c2csc(NN=C3CCCC3)n2)cc1", "system": "C57BL/6 mice, male, muscle", "conditions": "intravenous, 3 MBq, 1 min", "endpoint": "radioactivity uptake", "result": "2.28 ± 0.69 %ID/g"}
{"Structure (SMILES)": "C=CC(=O)Nc1cccc(Cn2ncc3cnc(Nc4cnn(CCOC)c4)nc32)c1", "system": "Sprague-Dawley rat male, serum", "conditions": "oral, 180 mg/kg, day 28, 28-day subacute toxicity", "endpoint": "serum albumin", "result": "22 ± 5.8 g/L"}
{"Structure (SMILES)": "COc1ccc(CNc2ccc3c(c2)S(=O)(=O)C=C3)cc1", "system": "male C57BL/6 mice, blood", "conditions": "intraperitoneal, 5 mg/kg, day 8, group average", "endpoint": "plateletcrit", "result": "7.04 mL/L"}
{"Structure (SMILES)": "O=C(CN1CCN(CC(=O)NCP(=O)([O-])[O-])CCN(CC(=O)NCP(=O)([O-])[O-])CCN(CC(=O)NCP(=O)([O-])[O-])CC1)NCP(=O)([O-])[O-].[Gd+3]", "system": "Sprague-Dawley rats, blood", "conditions": "intravenous, 35 µmol/kg, two-compartment model, added: GdDTPA 68 µmol/kg co-injected", "endpoint": "distribution half-life alpha", "result": "3.37 min"}
{"note": "A few entries again:"}
{"Structure (SMILES)": "Cc1cccc2c1C1(CCN(C(=O)c3ccc4[nH]ncc4c3)CC1)C(=O)N2CC(=O)NCC(F)(F)F", "system": "mouse liver microsomes", "endpoint": "CLint", "result": "21 µL/min/mg protein"}
{"Structure (SMILES)": "CC[C@H](C)[C@H](NC(=O)[C@H](CCCCN)NC(=O)CNC(=O)[C@H](CC(C)C)NC(=O)[C@H](Cc1ccccc1)NC(=O)[C@H](CCCCN)NC(=O)[C@H](CO)NC(=O)[C@H](Cc1ccccc1)NC(=O)[C@H](Cc1c[nH]c2ccccc12)NC(=O)[C@H](CCC(N)=O)NC(=O)[C@@H](NC(=O)[C@H](Cc1ccccc1)NC(=O)CCCCCNC(=O)CN1CCN(CC(=O)O)CCN(CC(=O)O)CCN(CC(=O)O)CC1)C(C)C)C(=O)N[C@@H](CCC(=O)O)C(=O)N1CCC[C@H]1C(=O)N[C@@H](CC(=O)O)C(=O)N[C@H](C(=O)N[C@@H](CO)C(=O)N[C@@H](CCC(N)=O)C(=O)N[C@H](C(=O)N[C@@H](CCC(N)=O)C(=O)N[C@@H](CC(=O)O)C(=O)N1CCC[C@H]1C(=O)N[C@@H](CC(N)=O)C(=O)N[C@@H](CC(=O)O)C(=O)N[C@@H](CCC(N)=O)C(=O)N[C@@H](Cc1ccc(O)cc1)C(=O)N[C@@H](CCC(=O)O)C(=O)N1CCC[C@H]1C(=O)N[C@@H](Cc1ccccc1)C(=O)O)C(C)C)C(C)C [copper-64 labelled]", "system": "GZMB-/- mice, CT26 tumour-bearing, brain", "conditions": "2 h, vehicle-treated", "endpoint": "tissue uptake", "result": "0.1 ± 0.01 %ID/g"}
{"Structure (SMILES)": "N#[11C]c1ccc(-c2csc(NN=C3CCCC3)n2)cc1", "system": "C57BL/6 mice, male, muscle", "conditions": "intravenous, 3 MBq, 1 min", "endpoint": "radioactivity uptake", "result": "2.28 ± 0.69 %ID/g"}
